{"data": "Assay results pooled from the literature", "note": "A part holds a random share of what one study measured."}
{"data": "Study 1", "target": "Transcriptional repressor CTCF (CTCF, Homo sapiens, UniProt P49711, residues 1-727, full length assumed)", "technique": "protein-binding microarray", "molecule type": "double-stranded DNA, one strand shown", "sample": "in vitro", "tested at": "not given", "setting": "k-mer, scored over probes, only values ≥0.25", "reading": "higher = stronger binding", "Construct (chain)": "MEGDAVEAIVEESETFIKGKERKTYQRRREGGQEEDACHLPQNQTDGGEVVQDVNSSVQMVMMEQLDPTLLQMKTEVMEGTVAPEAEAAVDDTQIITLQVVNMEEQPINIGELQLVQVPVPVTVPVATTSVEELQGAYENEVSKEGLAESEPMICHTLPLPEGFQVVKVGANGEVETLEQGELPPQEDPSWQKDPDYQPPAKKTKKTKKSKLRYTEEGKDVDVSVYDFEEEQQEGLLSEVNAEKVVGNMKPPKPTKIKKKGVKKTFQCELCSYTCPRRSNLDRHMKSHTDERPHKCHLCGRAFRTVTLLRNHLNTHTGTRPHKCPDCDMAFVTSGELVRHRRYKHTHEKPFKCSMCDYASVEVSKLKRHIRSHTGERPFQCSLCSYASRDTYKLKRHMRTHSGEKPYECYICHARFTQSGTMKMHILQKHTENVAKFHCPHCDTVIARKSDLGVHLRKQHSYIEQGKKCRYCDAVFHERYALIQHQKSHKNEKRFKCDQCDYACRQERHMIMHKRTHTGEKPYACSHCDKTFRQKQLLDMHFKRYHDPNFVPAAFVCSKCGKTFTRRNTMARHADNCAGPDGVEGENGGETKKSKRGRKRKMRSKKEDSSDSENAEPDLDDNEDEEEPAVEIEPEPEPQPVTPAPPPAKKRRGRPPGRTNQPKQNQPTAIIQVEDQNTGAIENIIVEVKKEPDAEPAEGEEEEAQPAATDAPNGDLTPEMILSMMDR"}
{"Strand": "AGGGTATA", "E-score": 0.271}
{"Strand": "ATGTGAAT", "E-score": 0.268}
{"Strand": "ATTACCGC", "E-score": 0.282}
{"Strand": "ATATAATC", "E-score": 0.295}
{"Strand": "AAGGCCGT", "E-score": 0.321}
{"Strand": "CATTTTCC", "E-score": 0.253}
{"Strand": "CTGGTGGC", "E-score": 0.288}
{"Strand": "ACGCGCCC", "E-score": 0.308}
{"Strand": "CATTTGTA", "E-score": 0.264}
{"Strand": "ATTGCGCG", "E-score": 0.361}
{"data": "Study 2", "target": "Sal-like protein 4, full length isoform A (SALL4, Homo sapiens, UniProt Q9UJQ4, residues 1-1053)", "technique": "universal PBM", "molecule type": "double-stranded DNA, one strand shown", "sample": "in vitro", "tested at": "600 nM", "setting": "8-mer, flanks averaged, mean of replicates", "reading": "higher = stronger binding", "sequence of UniProt Q9UJQ4 (whole entry, looked up)": "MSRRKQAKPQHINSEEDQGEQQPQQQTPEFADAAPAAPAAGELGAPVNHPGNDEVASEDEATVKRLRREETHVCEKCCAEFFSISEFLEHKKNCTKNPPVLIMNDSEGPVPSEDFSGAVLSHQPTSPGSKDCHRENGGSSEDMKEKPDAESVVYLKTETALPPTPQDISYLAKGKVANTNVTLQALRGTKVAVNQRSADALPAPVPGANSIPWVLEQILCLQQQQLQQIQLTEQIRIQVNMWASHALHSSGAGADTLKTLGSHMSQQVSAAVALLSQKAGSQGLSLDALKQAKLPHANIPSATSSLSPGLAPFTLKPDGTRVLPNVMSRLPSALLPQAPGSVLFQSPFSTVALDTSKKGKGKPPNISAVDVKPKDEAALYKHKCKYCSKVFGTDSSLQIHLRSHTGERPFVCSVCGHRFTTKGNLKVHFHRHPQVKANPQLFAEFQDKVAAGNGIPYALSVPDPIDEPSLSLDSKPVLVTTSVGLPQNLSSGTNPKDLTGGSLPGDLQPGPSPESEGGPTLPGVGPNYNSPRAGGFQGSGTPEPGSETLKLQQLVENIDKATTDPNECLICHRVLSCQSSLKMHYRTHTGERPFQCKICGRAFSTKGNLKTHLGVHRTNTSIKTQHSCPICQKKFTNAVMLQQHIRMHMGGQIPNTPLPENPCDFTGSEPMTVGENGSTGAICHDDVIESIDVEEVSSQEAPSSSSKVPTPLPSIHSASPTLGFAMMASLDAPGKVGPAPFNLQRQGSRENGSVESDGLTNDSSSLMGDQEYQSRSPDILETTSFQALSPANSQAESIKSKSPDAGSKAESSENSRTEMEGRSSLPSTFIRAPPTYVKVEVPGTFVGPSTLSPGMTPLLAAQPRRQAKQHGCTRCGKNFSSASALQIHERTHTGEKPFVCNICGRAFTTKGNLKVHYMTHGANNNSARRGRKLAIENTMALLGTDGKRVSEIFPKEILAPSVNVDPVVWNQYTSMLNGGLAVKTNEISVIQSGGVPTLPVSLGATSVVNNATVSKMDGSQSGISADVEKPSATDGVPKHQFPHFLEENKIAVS"}
{"Strand": "TCACCGAA", "E-score": -0.00106}
{"Strand": "ATTGATAA", "E-score": 0.3}
{"Strand": "GCTCCTCC", "E-score": -0.239}
{"Strand": "TGACCAAA", "E-score": 0.161}
{"Strand": "GTTGCTTA", "E-score": 0.0845}
{"Strand": "AAAATGTC", "E-score": 0.283}
{"Strand": "GCACGCGA", "E-score": -0.21}
{"Strand": "ATAGAAAC", "E-score": 0.275}
{"Strand": "ACCGAGCT", "E-score": -0.188}
{"Strand": "AATCCTAC", "E-score": -0.0553}
{"Strand": "AGAGCTAG", "E-score": -0.0712}
{"data": "Study 3", "target": "RNA binding protein fox-1 homolog 2, RRM domain, GST-SBP tag (RBFOX2, Homo sapiens, UniProt O43251-10, residues 100-194)", "technique": "RNA Bind-n-Seq", "molecule type": "RNA", "sample": "in vitro", "tested at": "365 nM", "setting": "natural RNA segment, single round, ends assumed", "relative to": "no-protein control", "reading": "higher = stronger binding", "all sequences stand within": "GGGAGUUCUACAGUCCGACGAUC … UGGAAUUCUCGGGUGCCAA", "Construct (chain)": "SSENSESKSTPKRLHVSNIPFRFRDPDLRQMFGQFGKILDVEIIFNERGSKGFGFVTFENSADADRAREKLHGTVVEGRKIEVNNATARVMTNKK"}
{"Strand": "AGUACUGAAGCAUAUAAUGAAAGUAAUUGCUAAGUAGCAGCUUAAAAAUUCAAUUAUCCGAUUGUAUUUAACAUCUUUAAGAGCAUGAUCAUAAAGAGCUAUUUUUGACA", "RBNS enrichment (R)": 6.04}
{"Strand": "UUAAGAGUAUUAAAACUUAAAACCAUUUUUUGACUCUGAUUUUAAGUACAUUUUUAUAUGUCAGUUGCUGCCCUUCACACUACCAGGCCCUGCAGCCACAGUGUUCUGUU", "RBNS enrichment (R)": 0.319}
{"Strand": "GUAGGGUUUCUAGGUAAUUUUUACAGAAUUGCUUGUUUGCUUCAACUGUCUCCUACCUCUGCUCUUGGAGGAGAUGGGGACAGGGCUGGAGUCAAAACACUUGUAAUUUU", "RBNS enrichment (R)": 0.298}
{"Strand": "CUUCCCCAGGGAUCUGGGGAAGACCAGAGCUUGCAGCUCUGCCUGCUUUGAUCCAUAUUUCUCACAGUGCUGUAUUAAAAAAUAGAACCUAAGGCAGAUAGCCACCUUUA", "RBNS enrichment (R)": 0.338}
{"Strand": "CUUCCACCUUCAUUUCCCAAGUGCUGGGGUUAUAGGUUUGCACCAUGACACCCGACUUCGCCCUCAGCUUUCCACCCCGACCCUCCCACUACAUCUCAAGUGUUACAGAC", "RBNS enrichment (R)": 0.826}
{"Strand": "UGGGGCCUGUGGAGCCUGGGGUUGGAUAGGGCCAUGGCUGGUCCCCCACCAUACCUCCCCUCCACAUCACUGACACAGCUGAGCUUGUUAUCCAUCUCCCCAAACUUUCU", "RBNS enrichment (R)": 0.238}
{"Strand": "GCCCUUUCCCACAUGUCUAGGCUCCAAUGUCUCCUGUAGGUCCACCUAACUGUGUGUUUUCAGGGACAAUGCCAUCCAUGUUUGUGCUGUAGACUUGCUGCUGCUGAAUC", "RBNS enrichment (R)": 0.548}
{"Strand": "GAUCUGCUGUAGCCAGUGCAGACCUCACUGUCGUGUCCAUGCCACCCCCGGCAUGGCUCCAGGUGGCCUGGUGACUCCAUGAUGGACGAUCUUGCUCCCAGGACCUGCCU", "RBNS enrichment (R)": 0.461}
{"data": "Other studies, line by line"}
{"Substance": "PhoQ, residues 284 288 289 292 302 303 DDMDFR", "target": "PhoP, residues 12 14 15 18 19 QWHVF (Escherichia coli, UniProt P23836)", "test": "Sort-seq, measured: YFP reporter", "test system": "E. coli", "conditions": "PhoQ-PhoP variant library, with: 10 µM Mg2+", "how to read": "relative to: high Mg2+ state, higher = stronger signaling", "endpoint": "fold induction", "value": 0.809}
{"note": "Some of these lines once more (study 2):"}
{"Strand": "ATTGATAA", "E-score": 0.3}
{"Strand": "AATCCTAC", "E-score": -0.0553}
